Experimental data gathered from unrelated publications.
Compare with care: the assays were run in different laboratories. “And” joins repeats or separate records; there may be more than shown. ± gives the spread as reported. Values after ≈ are worked out from the molar mass of the structure shown.

| SMILES | organism | test | system | setting | scale | measurement | value |
| --- | --- | --- | --- | --- | --- | --- | --- |
| Cn1cc(NC(=O)c2cc(NC(=O)CN=C(N)N)cn2C)cc1C(=O)NCCC(=N)N | Bacillus subtilis | bacterial cytological profiling | ATCC 6633 | concentration not given |  | DNA area | 1.52 µm² and 1.53 µm² and 1.8 µm² |
| COP(=O)(OC)C(O)C(Cl)(Cl)Cl (centres unmarked) | Drosophila melanogaster | fluorescence |  | liquid food, 40 µg/mL, first instar larvae | reference: solvent | fluorescein ingestion | -38.3% |
| CNC(=O)c1cc(Cl)cc(C)c1NC(=O)c1cc(Br)nn1-c1ncccc1Cl | Plutella xylostella |  | Raphanus sativus field | 25 ppm, 168 h, 5% water-dispersible granule |  | larval survival | 8.6% |
| CC(C)OC(=O)[C@@H](N)Cc1ccc(OP2(=O)CO[C@@H](Cn3ccc(N)nc3=O)CO2)cc1 (some centres unmarked) | human cytomegalovirus | viral replication |  |  |  | IC50 | 0.12 µM |
| CO[C@H]1[C@H](O[C@H]([C@H]2O[C@@H](n3ccc(=O)[nH]c3=O)[C@H](O)[C@@H]2O)[C@H](NCCCNC(=O)[C@@H](NC(=O)[C@@H](NC(=O)N[C@H](C(=O)O)C(C)C)[C@@H]2CCN=C(N)N2)[C@@H](OC(=O)CCCCCCCCCCCCN(O)C(=N)N)C(C)C)C(=O)O)O[C@H](CN)[C@H]1O | Bacillus subtilis | microplate alamar blue | ATCC 6051 |  |  | MIC90 | 6.4 ± 0.098 µg/mL (≈ 5.27 µM) |
| CCOC(=O)c1ccc(OCCC2CCN(c3ccc(C)nn3)CC2)cc1 | rhinovirus C15a-mGL | high-content imaging | HeLa-CDHR3 C529Y | up to 1 µM |  | viral replication | no effect |
| COC1=CC(c2ccc[nH]2)=N/C1=C\c1[nH]c(Cc2ccc(OC(F)(F)F)cc2)cc1Cc1ccc(OC(F)(F)F)cc1 | Plasmodium berghei | bioluminescence | mice | oral, 20 mg/kg/day, 72 h | reference: vehicle | parasite load reduction | 98.9% |
| Cl.N/C(CC(O)c1cc2c(F)cc(F)cc2c2cc(C(F)(F)F)ccc12)=N\c1ccc(F)cc1 (centres unmarked) | Plasmodium berghei | Peters suppressive test | ANKA, infected mice | oral, 4 x 50 mg/kg, day 4 | reference: untreated control | parasitemia reduction | 99.8% |
| O=C(NNc1ccc(F)c(F)c1)c1nnc(CC23CC4CC(CC(C4)C2)C3)o1 | Botryosphaeria dothidea | fungal growth, inhibitor |  | 50 µg/mL |  | inhibition | 100% |
| COc1ccc(C[C@H](NC(=O)[C@H](C)NC(=O)CN2CCOCC2)C(=O)N[C@@H](Cc2ccccc2)C(=O)C2(C)CO2)cc1 (stereo in doubt) | Plasmodium berghei |  | ANKA, BALB/c mouse | 10 mg/kg |  | mean survival time | > 14 days |
| COC(=O)N[C@H](C(=O)N1CCC[C@H]1c1ncc(-c2ccc(-c3ccc(-c4cnc([C@@H]5CCCN5C(=O)[C@@H](NC(=O)OC)C(C)C)[nH]4)cc3)cc2)[nH]1)C(C)C | hepatitis C virus | HCV replicon |  | 90% effect level, with: IFN-α, ratio 2.5:1 |  | combination index | 0.65 and 0.67 |
| CS(=O)(=O)OCCN(CCBr)c1c(C(=O)NCCO)cc([N+](=O)[O-])cc1[N+](=O)[O-] | Homo sapiens | cell viability, resazurin or CellTiter-Glo | sample D BCP-ALL PDX cells, ex vivo |  |  | IC50 | 67.2 µM |
| CC[C@H](C)[C@H](NC(=O)[C@H](CC(N)=O)NC(=O)[C@H](Cc1ccccc1)NC(=O)[C@H](CCCNC(=N)N)NC(=O)[C@H](CCCNC(=N)N)NC(=O)[C@@H](N)CCCCN)C(=O)N[C@@H](CCCCN)C(=O)N[C@@H](CC(C)C)C(=O)N[C@@H](Cc1c[nH]c2ccccc12)C(=O)N[C@@H](CCCCN)C(=O)N[C@H](C(=O)N[C@@H](Cc1ccccc1)C(=O)O)[C@@H](C)O | Micrococcus luteus |  | NCTC 2665 |  |  | MBC | 32 µg/mL |
| C[C@H]1COCCN1c1nc(NCc2cccnc2C(F)(F)F)c2cccnc2n1 | Brugia malayi |  | SCID mouse | dose not given, 6 weeks post-treatment, dosing x14d |  | minimum adult worm burden | 0 worms per mouse |
| CS(=O)(=O)CCCn1c(Cn2c(=O)n(CC(F)(F)F)c3ccncc32)cc2cc(Cl)ccc21 | respiratory syncytial virus | RT-qPCR | hospitalized infants 1-24 months, nasal swab | oral, 6, 4.5 or 3 mg/kg daily, day 4, mid dose by age cohort | reference: baseline | LS mean viral load change | -2.39 log10 copies/mL |
| Cc1c2c(nn1C)CSCc1cc(n(C)n1)CSc1cc(c3ccccc3c1)OCCCc1c(C(=O)O)n(C)c3c-2c(Cl)ccc13 | Staphylococcus aureus | label-free proteomics, refers to: hld | SA113 | concentration not given | reference: untreated | log2 fold change | -5.24 |
| CC1(C)SC2C(NC(=O)C(NC(=O)C3=C(O)C(Cc4ccsc4)NC3=O)c3ccccc3)C(=O)N2C1C(=O)O (centres unmarked) | Escherichia coli |  | ΔtolC JW5503-1 | 200 µM, with: 30 µg/mL 2,2'-bipyridyl |  | zone of inhibition | 13 mm |
| N=C(N)NCCC[C@H](NC(=O)[C@@H](N)CCCNC(=N)N)C(=O)N[C@@H](Cc1c[nH]c2ccccc12)C(=O)N[C@@H](Cc1c[nH]c2ccccc12)C(=O)N[C@@H](CCC(N)=O)C(=O)N[C@@H](Cc1ccccc1)C(=O)N[C@@H](CCC(N)=O)C(=O)N[C@@H](Cc1ccccc1)C(=O)N[C@@H](CCCCN)C(N)=O | Bacillus subtilis |  |  |  |  | MBC | 9.7 µM |
| COC(=O)c1ccc2c(ccc3oc([N+](=O)[O-])cc32)c1 | Mycobacterium marinum | REMA | ATCC BAA-535 |  |  | MIC90 | 0.0625 µg/mL (≈ 0.23 µM) |
| Cl.N=C(CC(O)c1cc2c(F)cc(F)cc2c2cc(C(F)(F)F)ccc12)Nc1ccc(F)c(F)c1 (centres unmarked) | Plasmodium berghei | Peters 4-day test | ANKA, mouse | oral, 3 mg/kg |  | cure rate | 0% |
| CC[C@H](C)[C@H](NC(=O)[C@H](C)NC(=O)[C@H](CCCCN)NC(=O)[C@H](CC(C)C)NC(=O)[C@H](C)NC(=O)[C@@H](NC(=O)[C@H](Cc1c[nH]cn1)NC(=O)[C@H](CC(C)C)NC(=O)[C@@H](NC(=O)[C@@H](NC(=O)[C@H](CCCCN)NC(=O)[C@H](C)NC(=O)[C@H](C)NC(=O)[C@H](CO)NC(=O)[C@H](CCCCN)NC(=O)[C@H](Cc1ccccc1)NC(=O)[C@@H](NC(=O)[C@H](CCCCN)NC(=O)[C@H](CC(C)C)NC(=O)[C@H](Cc1ccccc1)NC(=O)[C@H](CO)NC(=O)[C@H](CCCCN)NC(=O)[C@H](Cc1c[nH]c2ccccc12)NC(=O)[C@H](CCCCN)NC(C)=O)[C@@H](C)O)[C@@H](C)O)C(C)C)[C@@H](C)O)C(=O)N[C@@H](CO)C(=O)N[C@@H](CO)C(N)=O | Staphylococcus aureus |  | MSSA | 67 strains |  | MBC50 | 4 µg/mL (≈ 1.36 µM) |
| CCCCc1ccc(CNc2nc(N(C)C)nc(N(C)C)c2/N=N/c2ccc(Cl)cc2)cc1 | Plutella xylostella | leaf dipping |  | 200 mg/L, 96 h |  | mortality | 93.3 ± 5.8% |
| Nc1ncnc2c1ncn2[C@@H]1O[C@@H]2COP(=O)(O)O[C@H]3[C@@H](O)[C@H](n4cnc5c(=O)[nH]cnc54)O[C@@H]3COP(=O)(O)O[C@H]2[C@H]1O | West Nile virus | RNA sequencing Reactome analysis, refers to: Antigen processing-Cross presentation (R-HSA-1236975) | HFF-1 | concentration not given, upregulated pathways, with: West Nile virus infection | reference: WNV-infected without compound | fold enrichment | 4.92 |
| O=[N+]([O-])c1cc2c(ccc3cc(Br)ccc32)o1 | Mycobacterium marinum | REMA | ATCC BAA-535 |  |  | MIC90 | 0.25 µg/mL (≈ 0.856 µM) |
| CO/C=C(/C(=O)OC)c1ccccc1Oc1cc(Oc2ccccc2C#N)ncn1 | Botryosphaeria dothidea | fungal growth, inhibitor |  | 50 µg/mL |  | inhibition | 70.6 ± 0.9% |
| Nc1nc(O)c2ncn(COC(CO)CO)c2n1 | human cytomegalovirus | viral cytopathic effect | HEL, AD-169 |  |  | EC50 | 4.33 µM |
| Cn1c(=O)ccc2ccc(F)c(CCNC[C@H]3CN(c4cnc5c(n4)NC(=O)CO5)C(=O)O3)c21 | Haemophilus influenzae |  |  |  |  | MIC90 | < 0.015 µg/mL |
| O=[N+]([O-])c1cc2cc3ccc4oc([N+](=O)[O-])cc4c3cc2o1 | Mycobacterium marinum | REMA | ATCC BAA-535 |  |  | MIC90 | 0.03 µg/mL (≈ 0.101 µM) |
| Cl.N=C(CC(O)c1cc2c(F)cc(F)cc2c2cc(C(F)(F)F)ccc12)Nc1ccc(Br)cc1 (centres unmarked) | Plasmodium berghei | Peters test | ANKA, mice | oral, 4 x 3 mg/kg |  | mean survival time | 14 days |
